{"data": "Measurements of several laboratories", "note": "Every numbered part comes from another study and shows a few of its results, in no order.", "chain of UniProt O00444 (whole entry, looked up)": "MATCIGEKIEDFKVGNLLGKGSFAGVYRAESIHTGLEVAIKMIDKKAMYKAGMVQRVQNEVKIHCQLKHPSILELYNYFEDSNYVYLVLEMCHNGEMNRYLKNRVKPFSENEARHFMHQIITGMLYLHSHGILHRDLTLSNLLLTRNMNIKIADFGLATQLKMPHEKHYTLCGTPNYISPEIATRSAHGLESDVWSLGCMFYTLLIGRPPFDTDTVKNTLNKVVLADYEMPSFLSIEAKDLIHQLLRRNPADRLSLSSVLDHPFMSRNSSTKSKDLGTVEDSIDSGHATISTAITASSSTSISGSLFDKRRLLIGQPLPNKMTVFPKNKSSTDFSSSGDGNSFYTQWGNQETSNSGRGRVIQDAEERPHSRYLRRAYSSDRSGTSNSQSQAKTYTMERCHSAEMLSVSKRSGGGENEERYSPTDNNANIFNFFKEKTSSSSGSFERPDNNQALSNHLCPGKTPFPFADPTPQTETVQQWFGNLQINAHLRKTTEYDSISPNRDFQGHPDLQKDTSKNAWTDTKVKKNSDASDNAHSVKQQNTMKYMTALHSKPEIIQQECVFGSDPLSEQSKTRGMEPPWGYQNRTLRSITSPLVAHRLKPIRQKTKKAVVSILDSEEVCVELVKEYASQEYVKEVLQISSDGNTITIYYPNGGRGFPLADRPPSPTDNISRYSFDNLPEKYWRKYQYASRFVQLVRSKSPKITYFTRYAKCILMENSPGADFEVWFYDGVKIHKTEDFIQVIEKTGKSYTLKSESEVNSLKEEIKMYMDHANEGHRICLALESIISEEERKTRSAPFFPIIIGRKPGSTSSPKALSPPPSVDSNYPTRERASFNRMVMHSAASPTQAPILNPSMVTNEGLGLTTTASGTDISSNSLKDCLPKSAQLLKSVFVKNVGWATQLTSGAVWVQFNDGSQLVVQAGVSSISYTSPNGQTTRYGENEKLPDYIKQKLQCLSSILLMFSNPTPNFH", "chain of UniProt Q02763 (whole entry, looked up)": "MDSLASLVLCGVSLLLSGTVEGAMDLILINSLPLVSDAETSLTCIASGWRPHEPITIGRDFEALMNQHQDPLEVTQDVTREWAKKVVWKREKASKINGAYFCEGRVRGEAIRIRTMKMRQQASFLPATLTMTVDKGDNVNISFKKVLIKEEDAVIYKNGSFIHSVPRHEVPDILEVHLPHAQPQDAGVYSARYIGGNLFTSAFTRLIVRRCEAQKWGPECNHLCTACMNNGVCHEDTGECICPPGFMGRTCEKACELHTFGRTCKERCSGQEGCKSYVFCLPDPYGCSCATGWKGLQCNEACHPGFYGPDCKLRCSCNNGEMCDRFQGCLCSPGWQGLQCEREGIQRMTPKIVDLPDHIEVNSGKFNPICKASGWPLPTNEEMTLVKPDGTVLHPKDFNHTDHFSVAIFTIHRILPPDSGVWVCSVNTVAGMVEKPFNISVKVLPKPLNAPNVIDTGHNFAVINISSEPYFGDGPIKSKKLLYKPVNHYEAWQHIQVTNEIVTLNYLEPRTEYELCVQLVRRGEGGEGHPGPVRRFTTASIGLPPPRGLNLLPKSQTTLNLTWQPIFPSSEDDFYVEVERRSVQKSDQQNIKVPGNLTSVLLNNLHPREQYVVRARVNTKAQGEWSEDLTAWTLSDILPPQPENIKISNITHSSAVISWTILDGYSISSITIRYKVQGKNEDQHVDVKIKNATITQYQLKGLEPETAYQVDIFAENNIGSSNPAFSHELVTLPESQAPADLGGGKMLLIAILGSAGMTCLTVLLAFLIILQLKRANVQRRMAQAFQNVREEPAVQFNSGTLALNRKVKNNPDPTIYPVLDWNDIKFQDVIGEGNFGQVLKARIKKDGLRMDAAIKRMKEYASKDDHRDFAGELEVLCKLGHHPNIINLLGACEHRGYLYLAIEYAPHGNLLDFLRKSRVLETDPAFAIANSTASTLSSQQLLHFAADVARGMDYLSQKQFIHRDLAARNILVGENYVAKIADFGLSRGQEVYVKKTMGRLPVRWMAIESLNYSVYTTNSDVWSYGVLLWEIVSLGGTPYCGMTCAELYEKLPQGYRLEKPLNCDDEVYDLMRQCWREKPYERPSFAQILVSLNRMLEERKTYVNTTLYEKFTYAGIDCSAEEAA", "chain of UniProt O15075 (whole entry, looked up)": "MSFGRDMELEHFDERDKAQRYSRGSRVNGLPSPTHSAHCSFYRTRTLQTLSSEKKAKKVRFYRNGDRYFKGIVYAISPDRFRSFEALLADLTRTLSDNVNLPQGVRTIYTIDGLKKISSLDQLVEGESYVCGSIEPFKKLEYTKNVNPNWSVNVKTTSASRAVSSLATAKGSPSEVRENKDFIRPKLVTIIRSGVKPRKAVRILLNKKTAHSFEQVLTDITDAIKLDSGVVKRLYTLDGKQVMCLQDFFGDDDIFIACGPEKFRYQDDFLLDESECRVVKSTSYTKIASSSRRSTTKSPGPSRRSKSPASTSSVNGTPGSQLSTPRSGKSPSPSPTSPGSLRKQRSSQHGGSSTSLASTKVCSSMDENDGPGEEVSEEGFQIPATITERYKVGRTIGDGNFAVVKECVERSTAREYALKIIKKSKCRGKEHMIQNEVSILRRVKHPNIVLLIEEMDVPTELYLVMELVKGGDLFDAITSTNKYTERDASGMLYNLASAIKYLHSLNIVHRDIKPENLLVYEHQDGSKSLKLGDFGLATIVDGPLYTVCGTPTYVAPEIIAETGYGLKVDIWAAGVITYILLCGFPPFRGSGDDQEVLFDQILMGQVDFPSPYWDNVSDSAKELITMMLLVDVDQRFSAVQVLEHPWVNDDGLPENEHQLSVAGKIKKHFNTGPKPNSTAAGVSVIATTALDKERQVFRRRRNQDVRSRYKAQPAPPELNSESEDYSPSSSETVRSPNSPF", "chain of UniProt Q9P2K8 (whole entry, unmodified, looked up)": "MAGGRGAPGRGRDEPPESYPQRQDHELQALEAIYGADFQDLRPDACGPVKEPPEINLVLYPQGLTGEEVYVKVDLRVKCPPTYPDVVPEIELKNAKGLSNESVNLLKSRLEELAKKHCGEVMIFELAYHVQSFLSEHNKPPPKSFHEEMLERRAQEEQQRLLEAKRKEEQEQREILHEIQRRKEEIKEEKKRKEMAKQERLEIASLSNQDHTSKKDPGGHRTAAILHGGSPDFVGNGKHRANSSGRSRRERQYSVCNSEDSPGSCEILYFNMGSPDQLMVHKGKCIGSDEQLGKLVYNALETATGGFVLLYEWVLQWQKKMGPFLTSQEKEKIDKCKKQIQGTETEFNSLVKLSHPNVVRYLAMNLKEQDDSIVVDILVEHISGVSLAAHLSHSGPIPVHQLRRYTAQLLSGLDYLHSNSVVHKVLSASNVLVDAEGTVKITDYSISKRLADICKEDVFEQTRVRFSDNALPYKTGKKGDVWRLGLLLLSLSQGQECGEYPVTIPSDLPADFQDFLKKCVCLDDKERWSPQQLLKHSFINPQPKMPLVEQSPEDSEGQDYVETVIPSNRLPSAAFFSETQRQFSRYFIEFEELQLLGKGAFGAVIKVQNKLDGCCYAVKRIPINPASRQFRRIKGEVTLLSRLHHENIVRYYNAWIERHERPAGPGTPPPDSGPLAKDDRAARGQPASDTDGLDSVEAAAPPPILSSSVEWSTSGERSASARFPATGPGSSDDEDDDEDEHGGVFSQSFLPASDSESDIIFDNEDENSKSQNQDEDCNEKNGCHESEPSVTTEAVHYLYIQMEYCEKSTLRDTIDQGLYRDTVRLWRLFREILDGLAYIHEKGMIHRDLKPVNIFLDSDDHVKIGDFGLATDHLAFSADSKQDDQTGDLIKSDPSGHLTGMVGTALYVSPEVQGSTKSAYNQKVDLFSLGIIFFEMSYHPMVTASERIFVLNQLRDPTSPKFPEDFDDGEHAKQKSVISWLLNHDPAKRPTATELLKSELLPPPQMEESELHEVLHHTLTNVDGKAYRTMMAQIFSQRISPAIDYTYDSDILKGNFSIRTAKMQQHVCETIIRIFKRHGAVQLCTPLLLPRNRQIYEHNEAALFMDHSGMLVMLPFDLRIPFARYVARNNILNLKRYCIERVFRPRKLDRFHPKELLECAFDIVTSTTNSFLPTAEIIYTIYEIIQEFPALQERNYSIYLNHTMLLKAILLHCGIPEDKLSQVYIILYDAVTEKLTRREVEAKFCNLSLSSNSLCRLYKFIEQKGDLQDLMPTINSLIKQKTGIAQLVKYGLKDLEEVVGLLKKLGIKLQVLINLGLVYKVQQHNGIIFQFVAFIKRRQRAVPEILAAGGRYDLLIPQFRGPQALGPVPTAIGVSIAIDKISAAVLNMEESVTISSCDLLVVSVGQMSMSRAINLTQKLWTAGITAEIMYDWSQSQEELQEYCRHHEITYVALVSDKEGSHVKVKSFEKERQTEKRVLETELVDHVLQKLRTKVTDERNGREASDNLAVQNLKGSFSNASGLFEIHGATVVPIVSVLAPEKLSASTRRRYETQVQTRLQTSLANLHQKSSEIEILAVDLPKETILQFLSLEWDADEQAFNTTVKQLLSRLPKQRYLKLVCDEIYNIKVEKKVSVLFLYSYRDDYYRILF", "chain of UniProt P51955 (whole entry, looked up)": "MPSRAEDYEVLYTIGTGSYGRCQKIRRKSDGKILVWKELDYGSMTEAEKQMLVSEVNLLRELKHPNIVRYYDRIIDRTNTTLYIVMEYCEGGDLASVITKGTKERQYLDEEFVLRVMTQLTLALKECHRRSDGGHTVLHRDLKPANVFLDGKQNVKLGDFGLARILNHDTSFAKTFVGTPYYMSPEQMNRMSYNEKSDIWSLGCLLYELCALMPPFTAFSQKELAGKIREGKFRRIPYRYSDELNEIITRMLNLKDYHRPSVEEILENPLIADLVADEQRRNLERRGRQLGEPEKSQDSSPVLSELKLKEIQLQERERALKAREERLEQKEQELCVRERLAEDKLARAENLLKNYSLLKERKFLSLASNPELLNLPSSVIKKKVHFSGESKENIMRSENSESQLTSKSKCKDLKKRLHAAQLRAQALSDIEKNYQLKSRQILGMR"}
{"data": "Study 1", "matrix": "hydrocarbon/water", "pH": "7.4"}
{"Structure (SMILES)": "CCN1CC(=O)N[C@@H](CC2CCCCC2)C(=O)N(C)[C@@H](C)C(=O)N[C@@H](CC(C)C)C(=O)N(C)Cc2cn(nn2)CC(=O)N[C@@H](CC(C)C)C(=O)N(C)[C@@H](C)C(=O)N[C@@H](CC(C)C)C(=O)N2CCC[C@@H]2C1=O", "logD": 0.708}
{"Structure (SMILES)": "CCCCCN1CC(=O)NC(CC(C)C)C(=O)N(C)C(C)C(=O)NC(C)C(=O)N2CCCC2C(=O)N(CC)CC(=O)NC(CC(C)C)C(=O)N(C)C(C)C(=O)NC(CC(C)C)C(=O)N2CCCC2C1=O (stereo not shown)", "logD": 2.16}
{"Structure (SMILES)": "CC[C@H]1NC(=O)[C@H](CC(C)C)NC(=O)[C@H](Cc2ccccc2)NC(=O)[C@H]2CCCN2C(=O)[C@H](CC(C)C)NC(=O)[C@H](C)NC1=O", "logD": -0.607}
{"Structure (SMILES)": "CCC[C@@H]1NC(=O)[C@H](C)N(C)C(=O)[C@H](CC(C)C)NC(=O)Cn2cc(nn2)CN(C)C(=O)[C@H](CC(C)C)NC(=O)[C@H](C)N(C)C(=O)[C@H](CC(C)C)NC(=O)[C@H](CCC)N(C)C(=O)[C@H]2CCCN2C1=O", "logD": 0.316}
{"Structure (SMILES)": "CC(C)C[C@@H]1NC(=O)[C@H](Cc2ccc(O)cc2)N(C)C(=O)[C@H]2CCCN2C(=O)[C@H](CC(C)C)NC(=O)[C@H](C)N(C)C(=O)[C@@H](C)N(C)C1=O", "logD": -0.866}
{"data": "Study 2", "SMILES": "O=C(Nc1ccc(Oc2ccc(F)cc2)cc1)N1CCc2ncccc2[C@H]1c1ccc(F)cc1", "method": "competition with immobilised ligand", "tested at": "1 µM"}
{"target": "NEK2 (Homo sapiens, UniProt P51955)", "test": "cell-free assay", "remaining binding": "93%"}
{"target": "Tyrosine-protein kinase ABL1, non-phosphorylated (ABL1, Homo sapiens, UniProt P00519, F317I)", "test": "binding", "remaining binding": "94%"}
{"target": "DCLK1 (Homo sapiens, UniProt O15075)", "test": "cell-free assay", "remaining binding": "100%"}
{"target": "eIF-2-alpha kinase GCN2, C-terminal kinase domain (EIF2AK4, Homo sapiens, UniProt Q9P2K8, S808G)", "test": "cell-free assay", "remaining binding": "100%"}
{"target": "MARK1 (Homo sapiens, UniProt Q9P0L2)", "test": "cell-free assay", "remaining binding": "81%"}
{"target": "EIF2AK1 (Homo sapiens, UniProt Q9BQI3)", "test": "cell-free assay", "remaining binding": "100%"}
{"target": "PLK4 (Homo sapiens, UniProt O00444)", "test": "cell-free assay", "remaining binding": "94%"}
{"data": "Study 3", "host": "human", "matrix": "microsomes or S9", "tested at": "2 µM", "time": "0.5 h"}
{"Structure (SMILES)": "COc1ccc(OC)c(NC(=O)c2cc(S(=O)(=O)N3CCC(C)CC3)c(C)n2C)c1", "remaining compound": "7.06%"}
{"Structure (SMILES)": "CCOC(=O)N1CCN(c2ncc3c(n2)CC(c2cc(OC)c(OC)c(OC)c2)CC3=O)CC1 (stereo not shown)", "remaining compound": "94.6%"}
{"Structure (SMILES)": "CCC(Oc1ccccc1C)C(=O)Nc1ccccc1C(=O)NC (stereo not shown)", "remaining compound": "9.55%"}
{"Structure (SMILES)": "CC(C)Oc1ccc(CN2C(=O)c3cc4ccsc4n3CC2(C)C(=O)NCc2ccc(F)cc2)cc1 (stereo not shown)", "remaining compound": "86.9%"}
{"Structure (SMILES)": "CC(=O)O[C@@H]1CC2C(C)(CC[C@H](O)C2(C)C)C2CC[C@]3(C)C(=CC(=O)O[C@H]3c3ccoc3)C21C (stereo partly shown)", "remaining compound": "20.6%"}
{"Structure (SMILES)": "CN1C(=O)C(c2c(-c3ccc(Br)cc3)[nH]c3[nH]c(=O)[nH]c(=O)c23)c2ccccc21 (stereo not shown)", "remaining compound": "46%"}
{"Structure (SMILES)": "Cc1c(Cl)cccc1NC(=O)Cn1c2c(c(=O)n3nc(-c4ccccc4)nc13)CCC2", "remaining compound": "36.5%"}
{"data": "Study 4", "Structure (SMILES)": "O=C1C(Cl)=C(N2C(=O)CCC2=O)C(=O)c2ccccc21", "effect on": "enzyme activity", "mode": "inhibitor", "tested at": "0.5 µM", "baseline": "control"}
{"target": "MERTK (Homo sapiens, UniProt Q12866)", "remaining activity [%]": 90.3}
{"target": "ULK3 (Homo sapiens, UniProt Q6PHR2)", "remaining activity [%]": 102}
{"target": "MAP3K5 (Homo sapiens, UniProt Q99683)", "remaining activity [%]": 99.1}
{"target": "WEE1 (Homo sapiens, UniProt P30291)", "remaining activity [%]": 93}
{"target": "NEK1 (Homo sapiens, UniProt Q96PY6)", "remaining activity [%]": 90}
{"target": "JAK3 (Homo sapiens, UniProt P52333)", "remaining activity [%]": 101}
{"target": "TEK (Homo sapiens, UniProt Q02763)", "remaining activity [%]": 96.7}
{"target": "GRK7 (Homo sapiens, UniProt Q8WTQ7)", "remaining activity [%]": 109}
{"target": "MAP3K14 (Homo sapiens, UniProt Q99558)", "remaining activity [%]": 102}
{"target": "ULK2 (Homo sapiens, UniProt Q8IYT8)", "remaining activity [%]": 108}
{"target": "TBK1 (Homo sapiens, UniProt Q9UHD2)", "remaining activity [%]": 97.9}
{"target": "CSNK1G3 (Homo sapiens, UniProt Q9Y6M4)", "remaining activity [%]": 93.5}
{"note": "Repeated from above (study 3):"}
{"Structure (SMILES)": "Cc1c(Cl)cccc1NC(=O)Cn1c2c(c(=O)n3nc(-c4ccccc4)nc13)CCC2", "remaining compound": "36.5%"}
{"Structure (SMILES)": "CCC(Oc1ccccc1C)C(=O)Nc1ccccc1C(=O)NC (stereo not shown)", "remaining compound": "9.55%"}
{"Structure (SMILES)": "COc1ccc(OC)c(NC(=O)c2cc(S(=O)(=O)N3CCC(C)CC3)c(C)n2C)c1", "remaining compound": "7.06%"}
